Assay results pooled from the literature.
Lines come from different studies, so protocols differ. “And” joins repeats or separate records; there may be more than shown. Numbers after ± are the reported error. ≈ marks a conversion by molar mass, not a printed value.

SMILES | organism | assay | test system | setting | scale | quantity | value
CCCN1C(=O)C(CCC)(C(=O)OCC)Oc2cc(F)ccc21 (centres unmarked) | Arabidopsis thaliana | stem length, petri dish germination | Col-0, 1/2 MS medium | 200 µg/mL, 7 days, 22 °C, dark | – | inhibition | 83.1%
C[N+]1=C2C(c3ccc([N+](=O)[O-])cc3)=[N+]([O-])c3ccccc3N2CCC1 | Fusobacterium nucleatum | – | – | – | – | MIC90 | 1 µg/mL
COc1ccc(Nc2ncnc3ccc(-c4ccc(S(=O)(=O)N5CCN(C)CC5)cc4)cc23)cc1Cl | Plasmodium falciparum | parasite growth, SYBR Green | D6 | blood stage | – | EC50 | 0.033 µM
COc1ccc(Cn2c3cc(=O)n(Cc4cccc(Cl)n4)c(C)c3c(=O)n2-c2ccccn2)cc1 | human respiratory syncytial virus | – | recombinant reporter virus | concentration not given, scale 0 to 100, added: cytidine 300 µM | – | normalized viral replication | 0
CCCCCCCCCC(=O)NCCCC[C@H](NC(=O)CCCCCCCCC)C(=O)N[C@@H](CCCCNC(=O)CCCCCCCCC)C(=O)NCC(=O)NCC(=O)NCC(=O)N[C@@H](CS)C(=O)N[C@@H](CCCNC(=N)N)C(=O)N[C@@H](CCCCN)C(=O)N1CCC[C@H]1C(=O)N[C@@H](CS)C(=O)N[C@@H](CCCNC(=N)N)C(=O)N[C@@H](CCCCN)C(=O)N1CCC[C@H]1C(N)=O | Candida albicans | broth microdilution | SP 3903, RPMI-1640 | 48 h, 30 °C | – | MIC | 16 µM (≈ 30 µg/mL)
NCCCO.O=C(O)C(Cl)Cl | Xanthium sibiricum | – | – | 15 mg/mL, 21 days, post-emergence, greenhouse | – | herbicidal inhibition | 64%
CC(=O)c1c(O)c(C)c(O)c2c1OC1=CC(=O)C(=C(C)NCCCCOC3OC4OC5(C)CCC6C(C)CCC(C3C)C46OO5)C(=O)C12C (mixture of isomers) | Plasmodium berghei | – | ANKA GFP, NMRI mouse | oral, 4 x 10 mg/kg | – | mean survival time | 9.7 days
Fc1cccc(COc2ccc(Nc3ncnc4ccc(-c5ccc(N6CCNCC6)cc5)cc34)cc2Cl)c1 | Plasmodium falciparum | parasite growth, SYBR Green fluorescence | W2, drug-resistant | – | – | EC50 | 0.63 µM
CN(C)c1nc(NCc2ccc(Oc3ccccc3)cc2)c(/N=N/c2ccc(Cl)cc2)c(N(C)C)n1 | Plutella xylostella | leaf dipping | – | 200 mg/L, 96 h | – | mortality | 53.3 ± 5.6%
CCOC(=O)C1(Cc2ccc(C#N)cc2F)Oc2cc(F)ccc2N(Cc2ccc(C#N)cc2F)C1=O (centres unmarked) | Arabidopsis thaliana | root length, petri dish germination | Col-0, 1/2 MS medium | 200 µg/mL, 7 days, 22 °C, dark | – | inhibition | 51.2%
CCCCCC[C@H]1C(=O)O[C@H](C)[C@H](NC(=O)c2cccc(NC=O)c2O)C(=O)O[C@@H](C)[C@@H]1OC(=O)CC(C)C | Bovine alphaherpesvirus 1 | viral replication | HaCaT | 24 h | – | IC50 | 0.0088 µM
CC(C)C[C@H](NC(=O)[C@H](CC(C)C)NC(=O)[C@H](CCCCN)NC(=O)[C@H](Cc1ccccc1)NC(=O)[C@@H](NC(=O)[C@H](CCCNC(=N)N)NC(=O)[C@@H](N)CCCCN)C(C)C)C(=O)N[C@@H](CCCCN)C(=O)N[C@@H](CCCNC(=N)N)C(=O)N[C@@H](Cc1ccc(O)cc1)C(=O)N[C@@H](Cc1c[nH]c2ccccc12)C(=O)N[C@@H](CCCNC(=N)N)C(=O)N[C@@H](CCC(N)=O)C(=O)N[C@@H](CC(C)C)C(=O)N[C@@H](CCCCN)C(=O)N[C@@H](CCCCN)C(=O)N1CCC[C@H]1C(=O)N[C@H](C(=O)N[C@@H](CCCNC(=N)N)C(=O)NCCOCCOCC(=O)O)C(C)C | Pseudomonas aeruginosa and Staphylococcus aureus | crystal violet | – | 32 µM, 24 h, polymicrobial biofilm | – | biofilm inhibition | > 95%
Cc1cc(C(=O)Nc2nc3cccc(C)c3n2[C@H]2CCCCN(C(=O)/C=C/CN(C)C)C2)ccn1 | Trypanosoma brucei brucei | – | 2T1 CLK1 overexpressing | 5 µM, DMSO pretreated | baseline: maximum | survival | 20.3% and 25.1% and 26.6% and 28.4%
CCCCCCCC(=O)NCCCC[C@H](NC(=O)CCCCCCC)C(=O)N[C@@H](CCCCNC(=O)CCCCCCC)C(=O)NCC(=O)NCC(=O)NCC(=O)N[C@@H](CS)C(=O)N[C@@H](CCCNC(=N)N)C(=O)N[C@@H](CCCCN)C(=O)N1CCC[C@H]1C(=O)N[C@@H](CS)C(=O)N[C@@H](CCCNC(=N)N)C(=O)N[C@@H](CCCCN)C(=O)N1CCC[C@H]1C(=O)N[C@@H](CS)C(=O)N[C@@H](CCCNC(=N)N)C(=O)N[C@@H](CCCCN)C(=O)N1CCC[C@H]1C(N)=O | Candida albicans | broth microdilution | 56452, RPMI-1640 | 48 h, 30 °C | – | MIC | 8 µM (≈ 18.2 µg/mL)
CCOC(=O)C1(Cc2cc(OC)cc(OC)c2)Oc2cc(F)ccc2N(Cc2cc(OC)cc(OC)c2)C1=O (centres unmarked) | Arabidopsis thaliana | root length, petri dish germination | Col-0, 1/2 MS medium | 50 µg/mL, 7 days, 22 °C, dark | – | inhibition | 31%
CCc1nn(C)c2nc(-c3ccc(C(=O)O)cc3)nc(NCc3ccccc3)c12 | Cryptosporidium parvum | – | HCT-8 | 12 x EC90, 6 h | baseline: DMSO control | parasite number | 85.4% and 72.9% and 134% and 81%
CCOC(=O)C1(Cc2cc(F)cc(F)c2)Oc2cc(F)ccc2N(Cc2cc(F)cc(F)c2)C1=O (centres unmarked) | Arabidopsis thaliana | stem length, petri dish germination | Col-0, 1/2 MS medium | 200 µg/mL, 7 days, 22 °C, dark | – | inhibition | 41.6%
O=c1n(CCNCCOS(=O)(=O)c2ccccc2)c(=O)n(S(=O)(=O)c2ccccc2)c(=O)n1S(=O)(=O)c1ccccc1 | Alternaria solani | broth microdilution | – | – | – | MLC | 64 ± 6 µg/mL
O=C(c1ccc(-c2ccc3ncnc(Nc4ccc(OCc5cccc(F)c5)c(Cl)c4)c3c2)cc1)N1CCOCC1 | Plasmodium falciparum | parasite growth, SYBR Green | D6 | blood stage | – | EC50 | 0.41 µM

SMILES | organism | assay | test system | setting | scale | quantity | value
C#CCN1C(=O)C(CC#C)(C(=O)OCC)Oc2ccccc21 (centres unmarked) | Arabidopsis thaliana | – | Col-0 | 50 µg/mL | – | seed germination inhibition | inhibited
CC[C@H](C)CCCCC(=O)N[C@@H](CCN)C(=O)N[C@H](C(=O)N[C@@H](CCN)C(=O)N[C@H]1CCNC(=O)[C@H]([C@@H](C)O)NC(=O)[C@H](CCN)NC(=O)[C@H](CCN)NC(=O)[C@H](CC(C)C)NC(=O)[C@@H](CC(C)C)NC(=O)[C@H](CCN)NC1=O)[C@@H](C)O | Escherichia coli | daily serial passaging | ATCC 8739 | highest sub-MIC, 41 days | baseline: initial MIC | MIC fold change | 1.63
C[C@H]1[C@@H](OCc2nnn(-c3cc4ccc(O)cc4oc3=O)c2CO[C@H]2O[C@@H]3O[C@@]4(C)CC[C@H]5[C@H](C)CC[C@@H]([C@H]2C)[C@@]35OO4)O[C@@H]2O[C@@]3(C)CC[C@H]4[C@H](C)CC[C@@H]1[C@@]24OO3 | Plasmodium berghei | – | NK65/GFP, mouse | subcutaneous, 22 µmol/kg daily for four days | – | cure rate | 100%
FC(F)(F)c1cccc(CNc2nc(NC3CCN(Cc4ccccc4)CC3)c3nc[nH]c3n2)c1 | Cryptococcus neoformans | RNA-seq, item: IPK1 (CNAG_01294) | – | 48 µg/mL, 3 h | baseline: untreated | mRNA fold change | 1.15
CC(C)[C@H]1NC(=O)[C@H](Cc2ccccc2)NC(=O)[C@@H](C(C)C)NC(=O)[C@@H](C)NC(=O)[C@H](C)NC(=O)[C@@H](Cc2c(-c3ccc(-c4ccc(-c5ccccc5)cc4)cc3)[nH]c3ccccc23)NC(=O)[C@@H](CO)NC1=O | Candida albicans | broth dilution | – | – | – | MIC90 | > 50 µM
Fc1cccc(COc2ccc(Nc3ncnc4ccc(-c5ccc(CN6CCCCC6)cc5)cc34)cc2Cl)c1 | Plasmodium falciparum | parasite growth, SYBR Green fluorescence | C235 (TM91C235), drug-resistant | – | – | EC50 | 0.091 µM
CN(C(=O)c1ccn2ncc(-c3ccc(C(N)=O)cc3)c2c1)c1ccc(C#N)cn1 | Cryptosporidium parvum | – | UGA1 Nluc, IFN-gamma knockout C57BL/6 mice, faeces | oral, 10 mg/kg daily, 264 h post infection, treatment days 11-17 | higher means more parasites | faecal Nluc luminescence | 2530 a.u. and 77500 a.u. and 126000 a.u. and 94800 a.u. and 27400 a.u.
[2H]C([2H])(c1cc(F)c(F)cc1F)n1c(=O)n(Cc2ncn(C)n2)c(=O)[nH]/c1=N\c1cc2cn(C)nc2cc1Cl | Murine coronavirus | viral replication, qPCR | L929 | 48 h | – | IC50 | 1.28 µM
Cc1ccc(N2CC3CC(C2)N3C)cc1C(=O)NC1(c2ccc3c4c(cccc24)C(=O)N3C)CC1 | Betacoronavirus 1 | viral replication | Huh-7, OC43 | 0.75 µM | – | inhibition | 0%
C[N+]1=C2C(c3ccccc3)=[N+]([O-])c3ccccc3N2CCC1 | Fusobacterium nucleatum | – | – | – | – | MIC90 | 4 µg/mL
CC(=O)c1c(O)c(C)c(O)c2c1OC1=CC(=O)C(=C(C)NCCCC(=O)OC3OC4OC5(C)CCC6C(C)CCC(C3C)C46OO5)C(=O)C12C (centres unmarked) | Plasmodium berghei | – | ANKA GFP, NMRI mouse | oral, 4 x 100 mg/kg | – | mean survival time | 29.3 days
CN1CCN(S(=O)(=O)c2ccc(-c3ccc4ncnc(Nc5ccc(F)cc5)c4c3)cc2)CC1 | Plasmodium falciparum | parasite growth, SYBR Green fluorescence | W2, drug-resistant | – | – | EC50 | 0.78 µM
CCOC(=O)C1(Cc2cccc(C(C)C)c2)Oc2cc(F)ccc2N(Cc2cccc(C(C)C)c2)C1=O (centres unmarked) | Arabidopsis thaliana | stem length, petri dish germination | Col-0, 1/2 MS medium | 50 µg/mL, 7 days, 22 °C, dark | – | inhibition | 17.8%
O=S(=O)(c1ccc(-c2ccc3ncnc(Nc4ccc(OCc5cccc(F)c5)c(Cl)c4)c3c2)cc1)N1CCOCC1 | Plasmodium falciparum | parasite growth, SYBR Green fluorescence | C235 (TM91C235), drug-resistant | – | – | EC50 | 0.35 µM
CCOC(=O)C1(Cc2ccc(C(F)(F)F)cc2)Oc2cc(F)ccc2N(Cc2ccc(C(F)(F)F)cc2)C1=O (centres unmarked) | Arabidopsis thaliana | stem length, petri dish germination | Col-0, 1/2 MS medium | 50 µg/mL, 7 days, 22 °C, dark | – | inhibition | 22.1%
CC(C)(C)OC(=O)N1CCN(S(=O)(=O)c2ccc(-c3ccc4ncnc(Nc5ccc(OCc6cccc(F)c6)c(Cl)c5)c4c3)cc2)CC1 | Plasmodium falciparum | parasite growth, SYBR Green fluorescence | C235 (TM91C235), drug-resistant | – | – | EC50 | 0.43 µM
C[C@H](NC(=O)[C@@H](O)c1cc(F)cc(F)c1)C(=O)N[C@@H]1C(=O)N(C)c2ccccc2-c2ccccc21 | dengue virus 2 | viral infection, luciferase reporter virus | – | 10 nM, 48 h | – | inhibition | 94.9%
O=C(c1cccc(-c2ccc3ncnc(Nc4ccc(OCc5cccc(F)c5)c(Cl)c4)c3c2)c1)N1CCCCC1 | Plasmodium falciparum | parasite growth, SYBR Green fluorescence | C235 (TM91C235), drug-resistant | – | – | EC50 | 0.53 µM
CCOC(=O)C1(Cc2ccc(C)cc2)Oc2cc(F)ccc2N(Cc2ccc(C)cc2)C1=O (centres unmarked) | Arabidopsis thaliana | stem length, petri dish germination | Col-0, 1/2 MS medium | 50 µg/mL, 7 days, 22 °C, dark | – | inhibition | 38.1%

A few entries again:
SMILES | organism | assay | test system | setting | scale | quantity | value
NCCCO.O=C(O)C(Cl)Cl | Xanthium sibiricum | – | – | 15 mg/mL, 21 days, post-emergence, greenhouse | – | herbicidal inhibition | 64%
CCOC(=O)C1(Cc2ccc(C#N)cc2F)Oc2cc(F)ccc2N(Cc2ccc(C#N)cc2F)C1=O (centres unmarked) | Arabidopsis thaliana | root length, petri dish germination | Col-0, 1/2 MS medium | 200 µg/mL, 7 days, 22 °C, dark | – | inhibition | 51.2%
